Measurements gathered from unrelated publications.
Every numbered part comes from another study and shows a few of its results, in no order. “And” joins repeats or separate records; there may be more than shown.
Sequence of UniProt Q8NG66 (whole entry, looked up): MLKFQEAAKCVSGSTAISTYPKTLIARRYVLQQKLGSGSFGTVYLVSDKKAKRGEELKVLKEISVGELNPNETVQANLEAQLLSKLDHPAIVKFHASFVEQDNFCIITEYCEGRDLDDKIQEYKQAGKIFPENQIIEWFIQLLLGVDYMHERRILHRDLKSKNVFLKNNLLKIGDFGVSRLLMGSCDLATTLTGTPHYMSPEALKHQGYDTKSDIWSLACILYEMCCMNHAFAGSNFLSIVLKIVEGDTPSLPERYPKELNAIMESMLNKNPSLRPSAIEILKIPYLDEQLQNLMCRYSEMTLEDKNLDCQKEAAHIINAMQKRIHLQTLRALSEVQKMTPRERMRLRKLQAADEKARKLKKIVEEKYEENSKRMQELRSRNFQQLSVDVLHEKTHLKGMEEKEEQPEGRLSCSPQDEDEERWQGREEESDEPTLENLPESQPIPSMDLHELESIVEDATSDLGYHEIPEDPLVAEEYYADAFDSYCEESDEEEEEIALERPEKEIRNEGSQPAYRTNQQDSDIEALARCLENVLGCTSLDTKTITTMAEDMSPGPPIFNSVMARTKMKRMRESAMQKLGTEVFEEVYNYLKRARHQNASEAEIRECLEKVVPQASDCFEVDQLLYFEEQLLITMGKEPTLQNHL
Sequence of UniProt Q9NRM7 (whole entry, looked up): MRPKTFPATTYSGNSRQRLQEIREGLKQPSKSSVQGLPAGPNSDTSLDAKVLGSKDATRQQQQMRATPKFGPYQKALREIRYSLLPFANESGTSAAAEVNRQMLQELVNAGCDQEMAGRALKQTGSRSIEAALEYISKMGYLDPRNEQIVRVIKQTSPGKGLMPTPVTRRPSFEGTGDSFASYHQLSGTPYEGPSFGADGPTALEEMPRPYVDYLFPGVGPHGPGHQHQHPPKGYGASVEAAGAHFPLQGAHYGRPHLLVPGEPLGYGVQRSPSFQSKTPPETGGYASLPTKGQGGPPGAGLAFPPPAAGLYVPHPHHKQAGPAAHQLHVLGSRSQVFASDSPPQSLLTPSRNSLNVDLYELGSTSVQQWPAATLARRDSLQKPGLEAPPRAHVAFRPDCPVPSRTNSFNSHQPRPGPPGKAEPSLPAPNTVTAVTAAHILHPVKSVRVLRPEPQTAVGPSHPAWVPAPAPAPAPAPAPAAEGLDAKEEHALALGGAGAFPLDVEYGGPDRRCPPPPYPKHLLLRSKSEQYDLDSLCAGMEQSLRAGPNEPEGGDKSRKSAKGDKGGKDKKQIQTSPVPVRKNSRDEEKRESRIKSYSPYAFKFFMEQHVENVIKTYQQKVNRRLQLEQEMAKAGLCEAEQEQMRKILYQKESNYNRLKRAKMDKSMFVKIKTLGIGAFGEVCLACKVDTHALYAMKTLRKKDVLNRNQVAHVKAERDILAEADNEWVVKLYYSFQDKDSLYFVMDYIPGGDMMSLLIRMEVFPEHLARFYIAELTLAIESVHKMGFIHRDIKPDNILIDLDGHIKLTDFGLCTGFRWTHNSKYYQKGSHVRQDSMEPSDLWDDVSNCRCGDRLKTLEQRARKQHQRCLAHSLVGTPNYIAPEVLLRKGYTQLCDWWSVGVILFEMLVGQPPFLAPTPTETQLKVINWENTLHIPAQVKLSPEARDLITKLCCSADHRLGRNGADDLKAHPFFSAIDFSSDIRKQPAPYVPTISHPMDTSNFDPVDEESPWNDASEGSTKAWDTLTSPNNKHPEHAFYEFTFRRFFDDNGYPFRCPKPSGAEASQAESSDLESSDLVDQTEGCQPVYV
Sequence of UniProt P31751 (whole entry, looked up): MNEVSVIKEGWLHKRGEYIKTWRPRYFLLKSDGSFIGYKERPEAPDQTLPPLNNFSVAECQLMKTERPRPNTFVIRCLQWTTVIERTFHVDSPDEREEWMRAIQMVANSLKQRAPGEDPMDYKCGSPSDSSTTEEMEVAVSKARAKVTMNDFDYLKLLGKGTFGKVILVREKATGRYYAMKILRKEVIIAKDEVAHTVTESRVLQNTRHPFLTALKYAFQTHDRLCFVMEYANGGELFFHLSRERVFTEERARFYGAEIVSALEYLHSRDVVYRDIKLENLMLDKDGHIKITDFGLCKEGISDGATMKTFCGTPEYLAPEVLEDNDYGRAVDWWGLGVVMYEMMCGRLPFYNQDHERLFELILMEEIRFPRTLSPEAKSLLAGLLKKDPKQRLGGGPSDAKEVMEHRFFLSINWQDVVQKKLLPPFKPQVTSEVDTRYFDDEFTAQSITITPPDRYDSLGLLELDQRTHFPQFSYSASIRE
Sequence of UniProt Q16539 (whole entry, looked up): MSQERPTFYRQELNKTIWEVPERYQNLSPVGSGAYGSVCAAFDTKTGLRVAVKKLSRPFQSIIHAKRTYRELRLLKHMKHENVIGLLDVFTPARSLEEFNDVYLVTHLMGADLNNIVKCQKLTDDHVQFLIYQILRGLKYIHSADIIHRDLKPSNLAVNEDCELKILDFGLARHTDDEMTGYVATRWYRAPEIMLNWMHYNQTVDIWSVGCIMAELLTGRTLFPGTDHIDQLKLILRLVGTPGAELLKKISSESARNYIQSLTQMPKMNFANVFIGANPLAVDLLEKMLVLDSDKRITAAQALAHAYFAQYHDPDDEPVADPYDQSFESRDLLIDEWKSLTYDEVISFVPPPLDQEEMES
Sequence of UniProt P20813 (whole entry, looked up): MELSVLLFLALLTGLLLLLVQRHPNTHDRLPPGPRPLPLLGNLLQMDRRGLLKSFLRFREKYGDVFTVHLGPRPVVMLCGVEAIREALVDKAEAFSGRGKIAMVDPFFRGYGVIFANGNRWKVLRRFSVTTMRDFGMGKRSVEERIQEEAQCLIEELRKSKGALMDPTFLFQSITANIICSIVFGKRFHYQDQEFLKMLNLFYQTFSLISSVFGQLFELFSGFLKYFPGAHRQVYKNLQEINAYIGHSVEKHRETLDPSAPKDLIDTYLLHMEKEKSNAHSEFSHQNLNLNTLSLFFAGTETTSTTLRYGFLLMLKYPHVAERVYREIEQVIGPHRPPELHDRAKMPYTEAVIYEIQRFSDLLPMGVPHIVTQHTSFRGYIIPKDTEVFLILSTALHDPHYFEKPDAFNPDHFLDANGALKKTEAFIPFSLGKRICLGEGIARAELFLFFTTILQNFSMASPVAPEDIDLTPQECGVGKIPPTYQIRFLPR

Study 1
Cell line: HCC1569
Observed: CDK1 Thr14 phosphorylation
Technique: in-cell western
Concentration: 1.37 nM
Reading: lower = stronger inhibition
Quantity: phospho-CDK1 (Thr14) level
Cc1ccc(O)c(C)c1-c1cnc2[nH]c(-c3cnc(N4CCC(CN5CCN(c6ccc7c(c6)C(=O)N(C6CCC(=O)NC6=O)C7=O)CC5)CC4)nc3)cc2c1C#N (stereo not shown): 20.7 a.u. and 13.9 a.u.
Cc1ccc(O)c(C)c1-c1cnc2[nH]c(-c3cnc(N4CCC(CN5CCN(c6ccc(NC7CCC(=O)NC7=O)cc6F)CC5)CC4)nc3)cc2c1C#N (stereo not shown): 25.9 a.u. and 37.8 a.u.
Cc1ccc(O)c(C)c1-c1cnc2[nH]c(-c3cnc(N4CCC(CN5CCC(c6ccc(NC7CCC(=O)NC7=O)cc6F)CC5)CC4)nc3)cc2c1C#N (stereo not shown): 23 a.u. and 9.72 a.u.
Cc1ccc(O)c(C)c1-c1cnc2[nH]c(-c3cnc(N4CCC(CN5CCN(c6cc7c(cc6F)n(C6CCC(=O)NC6=O)c(=O)n7C)CC5)CC4)nc3)cc2c1C#N (stereo not shown): -3.2 a.u. and 19 a.u.
Cc1ccc(O)c(C)c1-c1cnc2[nH]c(-c3cnc(N4CCC(CN5CCN(c6cc7c(cc6F)c(N6CCC(=O)NC6=O)nn7C)CC5)CC4)nc3)cc2c1C#N: 3 a.u. and 7.56 a.u.

Study 2
Compound: COc1cc(-c2nc3ccc(C(=O)NCCCN(C)C)cc3n2C2CCC2)cc(OC)c1OC
Technique: NanoBRET
Concentration: 1 µM
Quantity: target occupancy
AKT2 (Homo sapiens, UniProt P31751): -1.22%
PRKACB (Homo sapiens, UniProt P22694): 1.56%
TLK1 (Homo sapiens, UniProt Q9UKI8): 1.51%
NEK11 (Homo sapiens, UniProt Q8NG66): -0.47%
TNNI3K (Homo sapiens, UniProt Q59H18): -0.19%
MAPK14 (Homo sapiens, UniProt Q16539): -7.88%
FLT3 (Homo sapiens, UniProt P36888): -1.94%
LATS2 (Homo sapiens, UniProt Q9NRM7): -0.96%

Study 3
SMILES: Cn1cc(-c2cccc(CN3CCC4(CC3)COc3c4ccc4c3CN([C@H]3CCC(=O)NC3=O)C4=O)c2)cn1
Observed: enzyme activity
Matrix: human liver microsomes
Relative to: negative control
Quantity: remaining activity
CYP3A4: Cytochrome P450 3A4 (CYP3A4, Homo sapiens, UniProt P08684)
Sequence of UniProt P08684 (whole entry, looked up): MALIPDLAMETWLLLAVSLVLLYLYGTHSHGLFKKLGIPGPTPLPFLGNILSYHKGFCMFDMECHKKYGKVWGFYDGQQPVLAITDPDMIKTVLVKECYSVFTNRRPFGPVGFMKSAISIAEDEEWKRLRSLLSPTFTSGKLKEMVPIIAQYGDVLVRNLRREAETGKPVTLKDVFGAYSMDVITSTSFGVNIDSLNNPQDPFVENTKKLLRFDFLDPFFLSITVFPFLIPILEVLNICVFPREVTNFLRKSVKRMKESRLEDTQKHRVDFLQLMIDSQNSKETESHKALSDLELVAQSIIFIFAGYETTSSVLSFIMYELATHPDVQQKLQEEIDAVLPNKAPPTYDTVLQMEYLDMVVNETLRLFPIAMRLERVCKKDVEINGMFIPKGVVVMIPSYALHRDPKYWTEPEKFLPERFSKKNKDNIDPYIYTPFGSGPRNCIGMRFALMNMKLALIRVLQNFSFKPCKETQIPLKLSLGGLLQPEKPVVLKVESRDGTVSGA
CYP2D6: Cytochrome P450 2D6 (CYP2D6, Homo sapiens, UniProt P10635)
Sequence of UniProt P10635 (whole entry, looked up): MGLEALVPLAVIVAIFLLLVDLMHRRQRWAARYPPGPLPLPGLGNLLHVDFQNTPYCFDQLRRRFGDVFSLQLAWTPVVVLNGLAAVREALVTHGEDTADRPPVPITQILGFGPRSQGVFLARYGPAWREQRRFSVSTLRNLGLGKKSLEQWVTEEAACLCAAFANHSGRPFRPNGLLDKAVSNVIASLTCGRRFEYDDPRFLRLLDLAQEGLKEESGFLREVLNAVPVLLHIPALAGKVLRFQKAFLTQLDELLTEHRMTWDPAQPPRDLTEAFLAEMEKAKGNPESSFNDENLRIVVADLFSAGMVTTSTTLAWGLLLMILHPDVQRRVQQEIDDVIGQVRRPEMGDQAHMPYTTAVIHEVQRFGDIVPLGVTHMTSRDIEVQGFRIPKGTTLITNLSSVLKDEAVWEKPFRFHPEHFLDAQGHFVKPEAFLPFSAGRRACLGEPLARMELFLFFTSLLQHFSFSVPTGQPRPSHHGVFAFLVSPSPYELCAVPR
CYP2C19: Cytochrome P450 2C19 (CYP2C19, Homo sapiens, UniProt P33261)
Sequence of UniProt P33261 (whole entry, looked up): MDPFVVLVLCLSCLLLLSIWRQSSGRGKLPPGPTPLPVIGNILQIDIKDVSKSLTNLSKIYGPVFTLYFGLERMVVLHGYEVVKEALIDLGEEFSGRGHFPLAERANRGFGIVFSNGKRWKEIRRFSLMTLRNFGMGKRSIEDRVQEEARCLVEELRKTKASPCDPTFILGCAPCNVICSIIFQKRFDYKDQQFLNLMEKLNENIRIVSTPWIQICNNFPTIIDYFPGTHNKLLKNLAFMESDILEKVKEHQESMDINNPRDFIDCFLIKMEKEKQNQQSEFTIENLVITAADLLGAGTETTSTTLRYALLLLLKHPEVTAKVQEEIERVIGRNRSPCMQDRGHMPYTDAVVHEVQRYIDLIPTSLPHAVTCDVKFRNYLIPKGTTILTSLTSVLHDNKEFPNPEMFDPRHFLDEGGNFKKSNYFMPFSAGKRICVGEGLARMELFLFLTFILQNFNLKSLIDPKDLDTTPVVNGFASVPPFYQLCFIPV
CYP3A4; 3.33 µM, with: testosterone substrate: 82.5%
CYP2D6; 0.04 µM: 104%
CYP2C19; 0.12 µM: 102%
CYP2C19; 1.11 µM: 100%
CYP3A4; 0.12 µM, with: midazolam substrate: 104%
CYP3A4; 0.0137 µM, with: testosterone substrate: 96.1%
CYP3A4; 10.00 µM, with: testosterone substrate: 85%
Cytochrome P450 1A2 (CYP1A2, Homo sapiens, UniProt P05177); 1.11 µM: 85.8%
CYP2D6; 0.12 µM: 103%
Cytochrome P450 2B6 (CYP2B6, Homo sapiens, UniProt P20813); 0.04 µM: 83.6%

Study 4
Compound: COCC1CC2C(CCC3C(O)CCC32)c2ccc(O)cc21 (stereo not shown)
Quantity: mRNA level ratio
SK-OV-3; microarray, item: GZMK; 100 µM; relative to: untreated: 1
A549; DNA microarray, item: GINS1; 25 µM; relative to: untreated cells: 1.11
PANC-1; microarray, item: RFC3; 100 µM; relative to: untreated: 1.73
PANC-1; microarray, item: AURKA; 100 µM; relative to: untreated: 1.44
SK-OV-3; DNA microarray, item: TMEM108; 25 µM; relative to: untreated cells: 1.11
PANC-1; microarray, item: CDC25B; 100 µM; relative to: untreated: 1.12
A549; DNA microarray, item: GAPDH; 25 µM; relative to: untreated cells: 0.819 and 0.815 and 0.804 and 0.822
PANC-1; DNA microarray, item: MCM10; 100 µM; relative to: untreated cells: 1.13

Excerpt of the above (study 1):
Cc1ccc(O)c(C)c1-c1cnc2[nH]c(-c3cnc(N4CCC(CN5CCC(c6ccc(NC7CCC(=O)NC7=O)cc6F)CC5)CC4)nc3)cc2c1C#N (stereo not shown): 23 a.u. and 9.72 a.u.
Cc1ccc(O)c(C)c1-c1cnc2[nH]c(-c3cnc(N4CCC(CN5CCN(c6cc7c(cc6F)n(C6CCC(=O)NC6=O)c(=O)n7C)CC5)CC4)nc3)cc2c1C#N (stereo not shown): -3.2 a.u. and 19 a.u.
Cc1ccc(O)c(C)c1-c1cnc2[nH]c(-c3cnc(N4CCC(CN5CCN(c6cc7c(cc6F)c(N6CCC(=O)NC6=O)nn7C)CC5)CC4)nc3)cc2c1C#N: 3 a.u. and 7.56 a.u.
Cc1ccc(O)c(C)c1-c1cnc2[nH]c(-c3cnc(N4CCC(CN5CCN(c6ccc7c(c6)C(=O)N(C6CCC(=O)NC6=O)C7=O)CC5)CC4)nc3)cc2c1C#N (stereo not shown): 20.7 a.u. and 13.9 a.u.
